Experimental data pooled from the literature.
Compare with care: the assays were run in different laboratories. “And” joins repeats or separate records; there may be more than shown. ± gives the spread as reported.

SMILES | test | test system | conditions | how to read | endpoint | value
CNCc1cc(-c2ccccc2F)n(S(=O)(=O)c2cccnc2)c1 | esophageal lesions | rat reflux esophagitis model | oral, 0.5 mg/kg | – | inhibition | 16.7%
CC(C)c1ncc(C(=O)N2CCOC3(CCN(Cc4ccc(F)c(CCNC[C@H](O)c5ccc(O)c6[nH]c(=O)sc56)c4)CC3)C2)s1 | – | COPD patients | inhaled, 100 µg twice daily, 12 h postdose, dosing day 1 | baseline: baseline | placebo-corrected trough FEV1 change | 18 mL
COc1cc(Nc2ncc3c(n2)-c2ccc(Cl)cc2C(c2c(F)cccc2OC)=NC3)ccc1C(=O)O | – | female NOD/scid mice, ALL-8 T-cell ALL xenograft | 20.8 mg/kg, 5 days weekly, score scale 0 to 10 | direction not given | median response score | 10
CN1CC[C@@H](c2c(O)cc(O)c3c(=O)cc(-c4ccc(C(F)(F)F)cc4Cl)oc23)[C@@H]1CO | RNA-seq | PBMC, human, AML | 100 to 200 mg, 6 h, 6 patients | – | significantly deregulated genes | 11 genes
CCCCCN1C[C@H](O)[C@@H](O)[C@H](O)[C@@H]1CO | – | Hexb-/- mouse, liver | 300 mg/kg/day, unit not given | baseline: 30 mg/kg/day | decreased sphingolipid species | 30
N#Cc1ccc2c(c1)[C@H]1CCCN(C(=O)c3ccc4[nH]cnc4c3)[C@H]1C2 | measured: androstenedione | human male, Phase II trial | oral, 240 mg once daily, last treatment, HPA axis, mean | – | plasma level | 8.78 nmol/L
CCc1ccc(CCOc2ccc(CC3SC(=O)NC3=O)cc2)nc1 (stereo not shown) | deuterium-hydrogen exchange | aqueous phosphate buffer | pH 7.4, 37 °C | – | exchange rate constant | -0.155 h⁻¹
C[C@H]1O[C@@H](O[C@H]2CC[C@@]3(C)[C@@H](CC[C@]4(C)[C@@H]3C=C[C@]35OC[C@@]6(CCC(C)(C)C[C@H]63)[C@@H](O)C[C@]54C)[C@]2(C)CO)[C@H](O)[C@@H](O[C@@H]2O[C@H](CO)[C@@H](O)[C@H](O)[C@H]2O)[C@H]1O | – | mouse, chronic-plus-binge ethanol, plasma | dose not given, low dose | – | AST/ALT ratio | 1.91 and 1.67 and 2.03 and 2.17
N#Cc1ccc2c(-c3ccncc3)c(-c3ccc(F)cc3)nn2c1 | kinase binding, competitor, MIB/MS competition, measured: IKS1 | Candida albicans cell lysate | 10 µM | baseline: DMSO | log2 fold change | -0.355
CC(=O)Oc1cc2c(s1)CCN(C(C(=O)C1CC1)c1ccccc1F)C2 (stereo not shown) | platelet aggregation, light transmittance aggregometry | human, platelet-rich plasma | dose not given, 15 min, IPA above 80 %, with: TRAP 15 µM | baseline: patients | patients with IPA above threshold | 0%
Cc1cc(C)c(CNC(=O)c2cc(Cl)c3c(c2C)O[C@@](C)([C@H]2CC[C@H](N(C)C)CC2)O3)c(=O)[nH]1 | – | relapsed/refractory NHL patients, total incl. ATLL and CTCL | oral, dose not given | – | best overall response CR | 25%
CCCCc1nc2c(N)nc3ccccc3c2n1Cc1ccc(N)cc1 | IL-6 release, ELISA | PBMC, human | 24 h | – | concentration | ~10 µM
c1ccc(-c2n[nH]cc2-c2ccnc3ccccc23)nc1 | kinase binding, competitor, MIB/MS competition, measured: RIM8 | Candida albicans cell lysate | 100 nM | baseline: DMSO | log2 fold change | 1.58
CC(C)NCC(O)c1ccc(O)c(O)c1 (stereo not shown) | – | ventricular cardiomyocytes, C57BL/6 mouse | dose not given, 0.608 s | – | sarcomere length | 1.69 µm
CNC(=O)c1ccc(N2C(=S)N(c3ccc(C#N)c(C(F)(F)F)c3)C(=O)C2(C)C)cc1F | western blot | NRG mouse male, CWR22Rv1 xenograft, tumour | dose not given, 16 days | – | AR-V7 protein level | no effect
Cc1cc(C)c(CNC(=O)c2cc(Cl)c3c(c2C)O[C@@](C)([C@H]2CC[C@H](N(C)C)CC2)O3)c(=O)[nH]1 | IWG criteria | relapsed/refractory AITL patients | dose not given | – | best response not evaluable | 5%
CN[C@@H](C)C(=O)N[C@H]1CN(S(=O)(=O)c2cccc(S(=O)(=O)N3CC[C@H]4CC[C@@H](C(=O)NC(c5ccccc5)c5ccccc5)N4C(=O)[C@@H](NC(=O)[C@H](C)NC)C3)c2)CC[C@H]2CC[C@@H](C(=O)NC(c3ccccc3)c3ccccc3)N2C1=O | RECIST 1.1 | advanced pancreatic cancer patients | dose not given, no prior therapy, with: AG | – | best response partial response | 33.3%
COc1ncnn2ccc(-c3cnc4nc(C)n(Cc5nnc([C@@H](C)F)o5)c4c3)c12 | – | relapsed or refractory AML, MDS | dose not given, splicing factor mutation-negative | – | best overall response CRi | 0%
Cc1c(C)n(Cc2cccc(OC(C)(C)C(=O)O)c2)c2ccc(C(=O)N[C@@H](C)c3ccc(C(C)(C)C)cc3)cc12 | – | C57BL/6 mouse, diet-induced obesity, proximal tibia | dose not given | baseline: control | bone volume change | 30.6%
N#Cc1ccc2c(c1)[C@H]1CCCN(C(=O)c3ccc4[nH]cnc4c3)[C@H]1C2 | – | human, urine | 160 mg, 24 h, day 1 over day -1 | baseline: placebo and baseline | total urinary corticosteroids | 64.3 % change
C[C@H](Oc1ccc(Br)cc1-c1ccon1)C(=O)O | muscle velocity recovery cycles | human, tibialis anterior muscle | 200 mg once daily, multiple doses, 30 Hz train for 30 s | baseline: placebo | peak amplitude change | -2.48%
N#Cc1ccn2c(-c3ccncc3)c(-c3ccc(F)cc3)nc2c1 | kinase binding, competitor, MIB/MS competition, measured: IRE1 | Candida albicans cell lysate | 10 µM | baseline: DMSO | log2 fold change | -0.655
O=C(OC(C(F)(F)F)C(F)(F)F)N1CCN(Cc2cccc(Oc3ccccc3)c2)CC1 | PET | rhesus monkey, pons | intravenous, 0.3 mg/kg, pretreatment blocking, with: [18F]T-401 | – | tracer distribution volume | 0.808 mL/cm3
COc1nnc2ccc(N3CCC(c4ccc(OCCN5CCN(C)C(=O)[C@H]5C)cc4)CC3)nn12 | – | human patients | 5 mg once daily, 1.5-fold above baseline | – | time above HEXIM1 threshold | 1.04 h
Cn1cc([C@H]2C[C@H]3CSC(N)=N[C@@]3(c3ccc(F)cc3F)CO2)cn1 | measured: Aβx-40 | wild-type mouse, brain | subcutaneous, 3 mg/kg, 9 h | – | brain Aβ40 level | 3.19 ng/g

SMILES | test | test system | conditions | how to read | endpoint | value
CCN1CCN(Cc2ccc(Nc3ncc(F)c(-c4cc(F)c5nc6n(c5c4)[C@H](C)CCC6)n3)nc2)CC1 | – | human advanced solid tumours | 200 mg, phase Ia monotherapy RECIST 1.1 | – | not evaluable response | 0%
CCO[C@H]1CCN(Cc2c(OC)cc(C)c3[nH]ccc23)[C@H](c2ccc(C(=O)O)cc2)C1 | – | PNH patients, blood | oral, 25 mg then 100 mg, week 12, mean percent change | baseline: baseline | C3d-positive type III RBCs | -87.7%
C=CCn1c(=O)c2cnc(Nc3ccc(N4CCN(C)CC4)cc3)nc2n1-c1ccc2c(n1)[C@@](O)(CC)CC2 | – | SK-OV-3 xenograft, NOD/SCID mice | oral, 80 mg/kg, day 17, once daily intermittent x 3 cycles | – | tumour volume difference | 458 ± 17.1 mm3
OC(CCN1CCCCC1)(c1ccccc1)C1CC2C=CC1C2 (stereo not shown) | resting-state EEG | healthy elderly humans | oral, 2 mg, eyes closed, LS mean | – | EEG Alpha1-power Pz-O1 | 15.9 µV²
CN(C)C(=O)Oc1cccc([N+](C)(C)C)c1 | neuromuscular block reversal | rat | dose not given, 1 (unit not given), with: cisatracurium | baseline: T1 twitch | train-of-four ratio | 3.96
C[C@@H]1CCN(C(=O)CC#N)C[C@@H]1N(C)c1ncnc2[nH]ccc12 | – | Balb/c mice, oxazolone colitis, colonic mucosa | oral, 30 mg/kg twice daily | baseline: vehicle | pSTAT3 level | inhibited
Cc1n[nH]c2ccc(-c3cc(OC[C@@H](N)Cc4ccccc4)cnc3-c3ccoc3)cc12 | kinase binding, competitor, MIB/MS competition, measured: TOR1 | Candida albicans cell lysate | 10 µM | baseline: DMSO | log2 fold change | -1.59
COc1cc(-c2ccccc2)ncc1C(=O)Nc1ccc2c(=O)[nH]c(-c3ccc(C(C)(C)O)cc3)nc2c1 | RNA-seq GSEA, measured: HALLMARK_MYC_TARGETS_V1 | organoids, small intestinal, Apc Q1405X, mouse | dose not given, wild-type organoids | baseline: DMSO, direction not given | normalized enrichment score | -1
CC1(C)CCC(CN2CCN(c3ccc(C(=O)NS(=O)(=O)c4ccc(NCC5CCOCC5)c([N+](=O)[O-])c4)c(Oc4cnc5[nH]ccc5c4)c3)CC2)=C(c2ccc(Cl)cc2)C1 | cell killing | canine blood CD3+ T cells, dog 30 | 24 h | – | EC50 | 11 nM
Cc1noc(C)c1-c1cc(C(O)(c2ccccn2)c2ccccn2)c2nc(C3CC3)[nH]c2c1 | measured: HEXIM1 expression | human, peripheral blood | 1.4 mg, day 1, 1599 study | – | maximum induction | 22.6%
COc1ccccc1[C@H](Cn1c(=O)n(C(C)(C)C(=O)O)c(=O)c2c(C)c(-c3ncco3)sc21)OC1CCOCC1 | [1-13C]acetate infusion, isotopomer analysis | overweight or obese healthy men, plasma VLDL-TG palmitate | oral, 50 mg single dose, 2 h post-dose, with: oral fructose | – | fractional hepatic DNL | 5.34 % new palmitate
Cc1ccc(C(=O)OCc2ccc([C@@H](CN)C(=O)Nc3ccc4cnccc4c3)cc2)c(C)c1 | tonometry | Macaca cyclopis, ocular normotensive | ocular, 0.02%, 52 h | – | IOP | 14.3 mmHg
COc1ccc2c(c1)CN(C(=O)CCN1CCC(Cc3ccccc3)CC1)CC[S@@+]2[O-] | – | anaesthetised Beagle dogs | intravenous, 0.1 mg/kg, pacing cycle length 360 ms | – | ventricular ERP prolongation | 11.2%
O=C1O[C@H]([C@@H](O)CO)C(O)=C1O | nitric oxide scavenging | – | 160 µM | – | inhibition | 52.7%
COc1ccc(F)cc1C(=O)NCc1ccc(-c2nn([C@@H](C)C(F)(F)F)c(N)c2C(N)=O)cc1 | – | relapsed/refractory CLL patients | dose not given, monotherapy | – | best overall response PD | 3%
O=C(O)CNC(=O)Cc1ccccc1 | – | ventricular cardiomyocytes, C57BL/6 mouse | dose not given, 0.256 s | – | sarcomere length | 1.66 µm
CCOc1c([C@H](C)n2nc(C)c3c(N)ncnc32)cc(Cl)c(F)c1[C@@H]1CNC(=O)C1 | Olink proximity extension, measured: FcRL2 | human FL or MZL patients, plasma | dose not given, week 8 day 1, once-daily dosing | baseline: baseline | percent change in level | -58%
COc1cc(O)c(CC=C(C)C)c(O)c1C(=O)/C=C/c1ccc(O)cc1 | glucose tolerance test | Tac:SW mice (male, germ-free, high-fat diet) | in diet, 60 mg/kg per day, 15 min after glucose, after 10 weeks | – | blood glucose | 256 mg/dL
C[C@H](CS)C(=O)N1CCC[C@H]1C(=O)O | LC-MS/MS, measured: extracellular Leu-enkephalin | mouse striatal brain slices | 10 µM, 20 min, with: 50 mM KCl | – | Leu-enkephalin concentration | 619 pM and 792 pM and 1600 pM and 1360 pM and 998 pM and 741 pM
OC[C@H]1O[C@@H](c2ccc(Cl)c(Cc3ccc(O[C@H]4CCOC4)cc3)c2)[C@H](O)[C@@H](O)[C@@H]1O | – | Japanese type 1 diabetes patients | 10 mg, day 7, 168 h | baseline: baseline | diastolic blood pressure change | -0.5 mmHg
NC(=O)c1cnc2[nH]ccc2c1N[C@@H]1[C@@H]2CC3C[C@H]1C[C@@](O)(C3)C2 | CD4+ effector T cells, flow cytometry | Japanese humans, peripheral blood | 60 mg single dose | baseline: baseline | percent change | 0.15%
CN[C@@H]1COc2c(S(=O)(=O)NC(=O)Nc3c4c(cc5c3CCC5)CCC4)cnn2C1 | measured: IL-1β | human participants, whole blood ex vivo | 300 mg twice daily, multiple doses, 8 h, with: LPS/ATP | baseline: baseline | inhibition | 99%
CCc1c(C)nc(-c2ccc(Cl)s2)nc1Nc1ccc(CC(=O)O)cc1 | – | mice, chronic ethanol plus binge, liver | intraperitoneal, 0.3 mg/kg daily, ethanol diet 4 weeks, dosed last two | baseline: vehicle | triglyceride content | no effect
C[C@H]1C[C@H]2CSC(N)=N[C@@]2(c2nc(NC(=O)c3ccc(OC(F)F)cn3)cs2)CO1 | measured: total Aβ | healthy adults, plasma | 5 mg once daily, day 4 | baseline: placebo | percent change from baseline | -35.4%

Repeated from above:
SMILES | test | test system | conditions | how to read | endpoint | value
CC(C)NCC(O)c1ccc(O)c(O)c1 (stereo not shown) | – | ventricular cardiomyocytes, C57BL/6 mouse | dose not given, 0.608 s | – | sarcomere length | 1.69 µm
CNC(=O)c1ccc(N2C(=S)N(c3ccc(C#N)c(C(F)(F)F)c3)C(=O)C2(C)C)cc1F | western blot | NRG mouse male, CWR22Rv1 xenograft, tumour | dose not given, 16 days | – | AR-V7 protein level | no effect
Cc1cc(C)c(CNC(=O)c2cc(Cl)c3c(c2C)O[C@@](C)([C@H]2CC[C@H](N(C)C)CC2)O3)c(=O)[nH]1 | IWG criteria | relapsed/refractory AITL patients | dose not given | – | best response not evaluable | 5%
CN[C@@H](C)C(=O)N[C@H]1CN(S(=O)(=O)c2cccc(S(=O)(=O)N3CC[C@H]4CC[C@@H](C(=O)NC(c5ccccc5)c5ccccc5)N4C(=O)[C@@H](NC(=O)[C@H](C)NC)C3)c2)CC[C@H]2CC[C@@H](C(=O)NC(c3ccccc3)c3ccccc3)N2C1=O | RECIST 1.1 | advanced pancreatic cancer patients | dose not given, no prior therapy, with: AG | – | best response partial response | 33.3%
COc1ncnn2ccc(-c3cnc4nc(C)n(Cc5nnc([C@@H](C)F)o5)c4c3)c12 | – | relapsed or refractory AML, MDS | dose not given, splicing factor mutation-negative | – | best overall response CRi | 0%
Cc1c(C)n(Cc2cccc(OC(C)(C)C(=O)O)c2)c2ccc(C(=O)N[C@@H](C)c3ccc(C(C)(C)C)cc3)cc12 | – | C57BL/6 mouse, diet-induced obesity, proximal tibia | dose not given | baseline: control | bone volume change | 30.6%
N#Cc1ccc2c(c1)[C@H]1CCCN(C(=O)c3ccc4[nH]cnc4c3)[C@H]1C2 | – | human, urine | 160 mg, 24 h, day 1 over day -1 | baseline: placebo and baseline | total urinary corticosteroids | 64.3 % change
